Experimental data of several laboratories.
Parts stem from different laboratories: compare values within a part only.
UniProt Q99558, sequence (whole entry, looked up): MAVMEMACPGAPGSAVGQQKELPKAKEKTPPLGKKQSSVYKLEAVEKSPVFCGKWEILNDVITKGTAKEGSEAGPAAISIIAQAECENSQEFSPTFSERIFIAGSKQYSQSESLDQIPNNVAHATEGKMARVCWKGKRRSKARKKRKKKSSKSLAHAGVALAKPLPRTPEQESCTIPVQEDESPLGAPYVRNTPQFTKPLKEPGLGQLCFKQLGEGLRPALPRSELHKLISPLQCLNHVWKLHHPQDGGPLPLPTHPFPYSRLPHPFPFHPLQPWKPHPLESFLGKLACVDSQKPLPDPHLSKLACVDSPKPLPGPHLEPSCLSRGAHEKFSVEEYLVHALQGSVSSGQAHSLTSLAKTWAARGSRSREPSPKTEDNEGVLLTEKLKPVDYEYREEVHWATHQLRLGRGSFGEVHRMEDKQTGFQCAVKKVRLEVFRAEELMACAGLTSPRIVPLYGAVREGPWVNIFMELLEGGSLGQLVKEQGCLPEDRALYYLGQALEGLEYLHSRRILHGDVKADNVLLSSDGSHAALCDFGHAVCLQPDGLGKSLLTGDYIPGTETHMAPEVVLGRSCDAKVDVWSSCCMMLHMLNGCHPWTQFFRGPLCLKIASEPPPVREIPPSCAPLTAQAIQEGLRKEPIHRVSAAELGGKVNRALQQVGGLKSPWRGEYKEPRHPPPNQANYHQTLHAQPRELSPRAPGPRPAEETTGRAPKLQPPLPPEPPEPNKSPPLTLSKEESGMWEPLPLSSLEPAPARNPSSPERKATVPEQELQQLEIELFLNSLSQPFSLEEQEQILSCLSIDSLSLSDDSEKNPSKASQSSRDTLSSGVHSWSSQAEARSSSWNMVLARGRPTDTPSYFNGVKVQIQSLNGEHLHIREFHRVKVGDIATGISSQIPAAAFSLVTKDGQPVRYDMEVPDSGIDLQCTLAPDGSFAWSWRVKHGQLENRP
UniProt P42685, sequence (whole entry, looked up): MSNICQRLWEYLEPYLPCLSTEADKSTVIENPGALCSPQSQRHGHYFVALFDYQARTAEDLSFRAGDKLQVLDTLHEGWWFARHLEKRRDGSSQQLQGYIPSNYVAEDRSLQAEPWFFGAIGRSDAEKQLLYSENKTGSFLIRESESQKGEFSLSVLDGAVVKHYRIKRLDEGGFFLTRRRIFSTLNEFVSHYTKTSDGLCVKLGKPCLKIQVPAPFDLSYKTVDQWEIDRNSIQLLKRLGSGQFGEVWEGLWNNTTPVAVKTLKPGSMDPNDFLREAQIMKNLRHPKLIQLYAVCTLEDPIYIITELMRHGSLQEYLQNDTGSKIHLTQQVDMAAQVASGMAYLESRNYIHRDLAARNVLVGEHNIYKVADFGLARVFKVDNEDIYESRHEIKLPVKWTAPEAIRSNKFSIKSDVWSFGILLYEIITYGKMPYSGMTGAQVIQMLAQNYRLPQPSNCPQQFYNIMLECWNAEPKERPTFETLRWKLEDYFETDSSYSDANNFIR
UniProt P36896, sequence (whole entry, looked up): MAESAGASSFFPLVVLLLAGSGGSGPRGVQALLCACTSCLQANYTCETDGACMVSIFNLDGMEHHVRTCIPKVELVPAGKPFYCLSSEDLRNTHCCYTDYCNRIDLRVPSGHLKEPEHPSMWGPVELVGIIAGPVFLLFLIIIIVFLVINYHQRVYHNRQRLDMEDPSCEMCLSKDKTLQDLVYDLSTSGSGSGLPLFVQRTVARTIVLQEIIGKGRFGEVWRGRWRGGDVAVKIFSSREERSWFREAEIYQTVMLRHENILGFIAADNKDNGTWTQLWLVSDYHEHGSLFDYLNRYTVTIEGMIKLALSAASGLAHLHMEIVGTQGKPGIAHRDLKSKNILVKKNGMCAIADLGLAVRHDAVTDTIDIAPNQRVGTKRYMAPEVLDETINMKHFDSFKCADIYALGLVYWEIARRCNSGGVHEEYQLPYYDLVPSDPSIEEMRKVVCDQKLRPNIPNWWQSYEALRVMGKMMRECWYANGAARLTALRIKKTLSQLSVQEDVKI
UniProt P10398, sequence (whole entry, looked up): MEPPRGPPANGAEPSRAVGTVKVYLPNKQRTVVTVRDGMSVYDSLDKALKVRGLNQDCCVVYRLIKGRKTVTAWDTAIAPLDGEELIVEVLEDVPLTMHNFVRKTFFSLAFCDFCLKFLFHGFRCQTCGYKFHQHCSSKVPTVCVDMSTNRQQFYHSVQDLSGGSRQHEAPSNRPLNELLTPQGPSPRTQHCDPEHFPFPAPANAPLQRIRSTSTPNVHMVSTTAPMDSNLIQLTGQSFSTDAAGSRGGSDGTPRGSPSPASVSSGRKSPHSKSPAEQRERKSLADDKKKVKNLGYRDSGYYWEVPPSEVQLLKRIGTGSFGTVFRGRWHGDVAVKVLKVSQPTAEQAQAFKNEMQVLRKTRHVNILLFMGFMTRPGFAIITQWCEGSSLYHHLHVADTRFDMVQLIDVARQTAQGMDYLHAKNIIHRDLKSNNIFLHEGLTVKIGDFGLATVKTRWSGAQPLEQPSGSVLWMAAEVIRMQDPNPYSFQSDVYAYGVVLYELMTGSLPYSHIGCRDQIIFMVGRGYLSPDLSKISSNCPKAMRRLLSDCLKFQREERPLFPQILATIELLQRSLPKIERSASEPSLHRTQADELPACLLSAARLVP
UniProt Q8IYT8, sequence (whole entry, looked up): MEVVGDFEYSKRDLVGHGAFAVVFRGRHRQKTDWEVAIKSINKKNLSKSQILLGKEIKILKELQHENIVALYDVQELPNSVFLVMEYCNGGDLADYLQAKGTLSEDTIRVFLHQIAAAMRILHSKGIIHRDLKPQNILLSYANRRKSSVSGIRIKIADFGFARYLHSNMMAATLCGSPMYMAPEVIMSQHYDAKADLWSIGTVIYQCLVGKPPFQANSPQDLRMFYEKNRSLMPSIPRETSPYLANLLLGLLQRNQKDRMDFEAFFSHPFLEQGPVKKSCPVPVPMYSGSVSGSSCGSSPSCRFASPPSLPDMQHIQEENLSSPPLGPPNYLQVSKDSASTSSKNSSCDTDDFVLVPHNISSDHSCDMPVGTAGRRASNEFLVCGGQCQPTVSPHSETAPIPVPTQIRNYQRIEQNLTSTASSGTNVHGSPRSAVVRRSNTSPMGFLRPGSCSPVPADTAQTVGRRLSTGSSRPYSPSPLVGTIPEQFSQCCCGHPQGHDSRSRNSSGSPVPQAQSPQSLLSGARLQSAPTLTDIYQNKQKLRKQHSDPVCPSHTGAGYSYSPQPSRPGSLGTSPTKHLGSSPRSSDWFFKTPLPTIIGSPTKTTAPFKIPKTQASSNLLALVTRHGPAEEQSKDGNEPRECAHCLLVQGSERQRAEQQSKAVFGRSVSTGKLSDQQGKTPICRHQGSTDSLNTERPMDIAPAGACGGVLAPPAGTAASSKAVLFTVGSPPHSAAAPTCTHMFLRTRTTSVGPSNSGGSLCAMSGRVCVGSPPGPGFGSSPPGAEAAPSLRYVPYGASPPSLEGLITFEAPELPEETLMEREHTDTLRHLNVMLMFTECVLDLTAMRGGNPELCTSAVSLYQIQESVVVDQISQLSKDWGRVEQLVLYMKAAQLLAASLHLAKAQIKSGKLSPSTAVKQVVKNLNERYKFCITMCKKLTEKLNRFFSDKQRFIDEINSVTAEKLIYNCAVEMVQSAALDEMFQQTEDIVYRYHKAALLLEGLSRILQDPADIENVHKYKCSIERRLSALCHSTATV
UniProt Q12866, sequence (whole entry, looked up): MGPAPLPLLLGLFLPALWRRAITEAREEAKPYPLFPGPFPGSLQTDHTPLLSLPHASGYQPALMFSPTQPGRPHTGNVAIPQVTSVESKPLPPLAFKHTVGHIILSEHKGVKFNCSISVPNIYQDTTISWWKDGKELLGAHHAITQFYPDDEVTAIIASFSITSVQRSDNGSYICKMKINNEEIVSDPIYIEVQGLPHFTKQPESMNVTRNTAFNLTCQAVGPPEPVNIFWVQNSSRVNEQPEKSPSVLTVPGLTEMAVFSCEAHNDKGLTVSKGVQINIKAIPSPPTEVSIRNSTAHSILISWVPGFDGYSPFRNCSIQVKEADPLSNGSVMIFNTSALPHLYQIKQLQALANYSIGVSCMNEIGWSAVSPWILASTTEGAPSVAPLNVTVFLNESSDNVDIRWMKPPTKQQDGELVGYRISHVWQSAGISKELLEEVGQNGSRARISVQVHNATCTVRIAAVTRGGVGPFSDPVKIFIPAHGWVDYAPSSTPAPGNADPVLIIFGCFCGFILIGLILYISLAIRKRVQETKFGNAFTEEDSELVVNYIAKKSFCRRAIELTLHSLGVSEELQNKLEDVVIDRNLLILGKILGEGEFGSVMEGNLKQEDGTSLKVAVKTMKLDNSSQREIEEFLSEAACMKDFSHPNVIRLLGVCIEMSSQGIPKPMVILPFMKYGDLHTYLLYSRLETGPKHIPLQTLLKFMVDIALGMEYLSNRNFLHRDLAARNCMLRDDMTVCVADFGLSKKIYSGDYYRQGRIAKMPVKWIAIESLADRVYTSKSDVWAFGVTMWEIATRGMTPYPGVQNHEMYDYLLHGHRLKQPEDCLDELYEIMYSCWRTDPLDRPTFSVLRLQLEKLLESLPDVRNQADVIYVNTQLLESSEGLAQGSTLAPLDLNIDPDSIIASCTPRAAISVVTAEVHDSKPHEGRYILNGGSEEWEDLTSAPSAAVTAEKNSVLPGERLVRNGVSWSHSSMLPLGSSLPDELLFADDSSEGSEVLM

Series 1
Target: Prothrombin, mature alpha-thrombin (F2, Homo sapiens, UniProt P00734)
Method: aptamer microarray, sandwich
Form: DNA with 2'F-ANA
Sample: in vitro
Tested at: 200 nM
Notes: whole 15-mer aptamer, many near background
With: Cy3 exosite-II aptamer, 400 nM
Reading: higher = stronger binding
Measurement: mean fluorescence intensity
Sequence: GGTTGGTGTGGTTGG
2'F-ANA at 4 5 6 10 11 12 13 15: 48.7 a.u.
2'F-ANA at 2 3 4 5 6 9 11 12 15: 125 a.u.
2'F-ANA at 3 8 11 12 15: 1370 a.u.
2'F-ANA at 1 2 4 8 11: 132 a.u.
2'F-ANA at 1 3 4 6 8 9 11 12 13 14 15: 179 a.u.
2'F-ANA at 1 2 3 4 5 6 7 10 11 14 15: 74.4 a.u.
2'F-ANA at 1 2 5 9: 65 a.u.
2'F-ANA at 1 3 4 5 7 8 9 10 12 14 15: 48.8 a.u.

Series 2
Target: Hepatocyte nuclear factor 3-alpha (Foxa1, Mus musculus, UniProt P35582, residues 1-468, full length assumed)
UniProt P35582, sequence (whole entry, looked up): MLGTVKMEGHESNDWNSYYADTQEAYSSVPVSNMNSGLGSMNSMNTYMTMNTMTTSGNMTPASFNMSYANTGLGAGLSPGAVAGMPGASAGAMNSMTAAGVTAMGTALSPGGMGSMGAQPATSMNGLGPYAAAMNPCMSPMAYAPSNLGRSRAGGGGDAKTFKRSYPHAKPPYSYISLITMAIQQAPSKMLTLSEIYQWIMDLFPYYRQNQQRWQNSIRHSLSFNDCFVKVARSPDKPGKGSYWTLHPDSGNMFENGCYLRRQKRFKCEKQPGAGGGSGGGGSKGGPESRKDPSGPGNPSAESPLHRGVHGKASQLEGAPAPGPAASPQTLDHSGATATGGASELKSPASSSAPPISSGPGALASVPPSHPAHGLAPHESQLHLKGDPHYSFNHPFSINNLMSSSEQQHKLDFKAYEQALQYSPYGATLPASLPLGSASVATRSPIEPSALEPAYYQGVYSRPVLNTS
Method: EMSA with sequencing
Form: double-stranded DNA, one strand shown
Sample: in vitro
Tested at: 10 and 20 nM
Notes: whole designed probe, mean of two concentrations, ends assumed
Baseline: negative control set to 0
Reading: higher = stronger binding
Measurement: normalised bound fraction
All sequences stand within: GTGAGCGGTGCCCATTGATGGGGAAC … TTTCACTGGGATCGTGGGGAC
TCTAAGTGCTTACCGGGTAACTGGAGGCCACTTGGTTGCTGGTTTTGGCTGGGCCTTTCTGGACTTTACCCCTCAGCCCCTGTTTATCCATCCCTGTTTACTCTTACTGTTCTATCTCCAGCACTGCCCGTCTCTGCCTCTCTCCACTGTCCCTGGAGCTCCCTGGGCCCTTCCCTGGGCCTCAGGACCTCAC: 0.14 ratio
ATCTTCCCCCTCTTCCTTGCCCCACCAGCTCACCTACGGGGGTTATTTGCAGATAGGAAAATAAATAAAGCCGGCATTCGTTAACGCAGTTCTGGCGCAAACTGCTGTTTGCTCTGCATGAATCATGGTCCTTACGCGAGGCGTGGCTCCGGGAGAGCAAAGCACCGTGTCAGGCGCATGATCCGGGCTCGCC: 0.353 ratio
TAAAAGCTGGTGAAATCTGAATAAGGTCTGTACCTGAGTTAAGAGGACTGTATCAATGACCATTTCCTGGTTTTGACAGTGTACTGTGGTTATGTAATTTTGGTTATGTGTATGTATCACTGGGGAAGCTGGGGAAGCATACATGGGAACTTTATGACTGTGCAACGTCTTGTGAGTCAACTACCTCAAATTA: -0.0266 ratio
CTCCTACTGATTGCCATATTTCTTTCACAGGATAACATAAGATTGGGTCAGCAGAATGGTGTTAACATGTTTATTTTGAGTGACTCACTCACAGCAAACAATGGTTGAGTTCAGGACTCTGGGCTGCCCAATGGTCCACTGCCAACTCTTAGGTTTAGACTTGGTGTGCAAGCCTGGTGTGCACTGGCTTTCC: 0.27 ratio
TTTTAAGTGAAATCAACTGAAACCTTACTTTTTTTTGCTTTTATACCTAAAATAGAGGATTTAGATATATTTTCTAGGAACGATGATGTAATATGTAATCTAGGAATTTTGGTATTGTTTGAAATATTTTCTCATGGGGACACACCACTAAATTTGTCACCTCTAAAACAGTACTTAGGTTAAATGCTTTTTA: -0.00278 ratio
CTTCAGAGGGCAGAACCCTCCCTGGGGACGCACCTGCCTCAGGCGCGGCCTGTGCATTCCTGCCTGGAGACAGGAGCTACCAGTCCCCGGCGCTGTTTACCTTCCGTCTGGCGGCCCAGCAGAGAGCCACCGCCCTCCCCTCTCCTGGCCTATATATAAGGCCTTGTCCTGGCTTTGCCCTGGGCGGGGACGC: 0.126 ratio
CCTCTGATTTCTATAGCATGTTGTTAGTCCCTATATTTAACACATTGTTTCAGCCCTGTAGTATATTGAGCTACTGTTTTCCCTGCCCCATATGTCAACATATTTAATAACTAGCATTTGTGGGGTTTATATTTTTCCAAATTATTTCAAATGTTTATTGATTTTACTCTTCACAGCATAAATATAAAGTGAA: 0.37 ratio
TTTCCAGCCCTTAGTTTCTGGCATTTAACCTGACTCTGGTCCCTGAATGGCATGGGAGTGCTTTCACTGACTCATTCCCACATTCATGCCACTTGTTTGCTTTTCTGTCACATTCTGATCTACAGAGATCTTTATTTGCTTTGTGTTTCCAATGGAGAAAGAGCTTGGGAAGGGAGGATCCTAATTGTCTAAA: 0.476 ratio

Series 3
Structure (SMILES): Cc1ccc(NC2=CC(=O)c3sc(C)nc3C2=O)cc1
Effect on: enzyme activity
Mode: inhibitor
Tested at: 0.5 µM
Baseline: control
Measurement: remaining activity
ARAF (Homo sapiens, UniProt P10398): 127%
FGFR1 (Homo sapiens, UniProt P11362): 85.3%
MERTK (Homo sapiens, UniProt Q12866): 80.5%
FRK (Homo sapiens, UniProt P42685): 87.9%
MAP3K14 (Homo sapiens, UniProt Q99558): 98.2%
ABL2 (Homo sapiens, UniProt P42684): 98.3%
TEK (Homo sapiens, UniProt Q02763): 95.9%
EPHA3 (Homo sapiens, UniProt P29320): 96.6%
MAPKAPK2 (Homo sapiens, UniProt P49137): 97.6%
TAOK2 (Homo sapiens, UniProt Q9UL54): 96.6%
ULK2 (Homo sapiens, UniProt Q8IYT8): 96.9%
MAP3K5 (Homo sapiens, UniProt Q99683): 119%
ACVR1B (Homo sapiens, UniProt P36896): 110%

Series 4
Compound: CCC(=O)N[C@H]1CC[C@@H](C(=O)N(C)c2ccc(-c3nc4ccccc4o3)cc2)C1
Effect on: cell-free assay
Method: competition with immobilised ligand
Tested at: 1 µM
Measurement: remaining binding
PI4KB (Homo sapiens, UniProt Q9UBF8): 77%
FGFR4 (Homo sapiens, UniProt P22455): 100%
MYLK4 (Homo sapiens, UniProt Q86YV6): 100%

Repeated from above (series 1):
2'F-ANA at 3 8 11 12 15: 1370 a.u.
2'F-ANA at 1 2 3 4 5 6 7 10 11 14 15: 74.4 a.u.
2'F-ANA at 1 2 4 8 11: 132 a.u.
